Results of several laboratories.
Lines come from different studies, so protocols differ. Values joined by “and” are separate records of one study, mostly repeats; a detail may differ. ± gives the spread as reported.

Nc1ccccc1/C=C/C(=O)c1ccccc1
emission maximum (toluene; 20 °C): 497 nm

CC(=O)O[C@H]1C(=O)[C@@]2(C)[C@H]([C@H](OC(=O)c3ccccc3)[C@]3(O)C[C@H](OC(=O)[C@H](O)[C@@H](NC(=O)c4ccccc4)c4ccccc4)C(C)=C1C3(C)C)[C@]1(OC(C)=O)CO[C@@H]1C[C@@H]2O
adverse event incidence (measured: Diarrhoea; patients with advanced solid tumours; intravenous, dose not given, grade 1 and 2, possibly related to drug): 30%

O=C(Nc1cc(C2CCCCC2)[nH]n1)c1ccc(Br)cc1
logP (octanol/buffer, 40 mM buffer; pH 11): 4.64

COc1ccc2c(c1)CN(C(=O)CCN1CCC(Cc3ccccc3)CC1)CC[S@@+]2[O-]
heart rate (telemetry; conscious dog; intravenous, 4 mg/kg, 1 h): 89 ± 21 beats/min

CCc1c(-c2ccccc2)c(-c2ccccc2)nn1-c1ccccc1-c1cccc(OCC(=O)O)c1
concentration (Sprague-Dawley rat, fat homogenate; oral, 10 mg/kg, 4 h): 255 ng/mL and 169 ng/mL

C=CC(=O)Nc1cc(Nc2nccc(-c3cn(C)c4ccccc34)n2)c(OC)cc1N(C)CCN(C)C
recovery (storage stability; human dried blood spot; 30 d, -80 °C, MQC level): 91.2%

Cc1ccc([C@@H]2O[C@H](CO)[C@@H](O)[C@H](O)[C@H]2O)cc1Cc1ccc(-c2ccc(F)cc2)s1
urinary sodium excretion change (Japanese type 2 diabetes patients; 100 mg, day 17, 24 h urine collection; baseline: baseline): -73.5 mEq

Cl.[2H]C([2H])([2H])CC(=O)c1cnc(NC(=O)C2CC2)cc1Nc1cccc(-c2ncn(C([2H])([2H])[2H])n2)c1OC
AUC(0-24 h) (human, fed; oral, 25 mg, single dose, liquid formulation, geometric mean): 1550 ng·h/mL

CO[C@H]1/C=C/O[C@@]2(C)Oc3c(C)c(O)c4c(O)c(c(/C=N/N5CCN(C)CC5)c(O)c4c3C2=O)NC(=O)/C(C)=C\C=C\[C@H](C)[C@H](O)[C@@H](C)[C@@H](O)[C@@H](C)[C@H](OC(C)=O)[C@@H]1C
adverse event Constipation (healthy humans; oral, dose not given): 8.3%

Cn1ncnc1[C@H]1c2n[nH]c(=O)c3cc(F)cc(c23)N[C@@H]1c1ccc(F)cc1
accumulation half-life (LC-MS/MS; human patients, plasma; oral, 600 µg/m2/day): 2.5 ± 2.12 days

N[C@@H]1c2cccnc2[C@H](OC(=O)N2CCC(n3c(=O)[nH]c4ncccc43)CC2)CC[C@H]1c1cccc(F)c1F
decrease in bioavailability (human; oral, fed state; baseline: fasted state): 31.5%

Cc1cccc(NS(=O)(=O)c2cc(C(=O)Nc3ccccc3C(=O)N3CCOCC3)ccc2Cl)c1
logP (octanol/buffer; pH 11, known kinase inactives set): 0.39

N#C[C@@]12C[C@@H]1[C@@H](n1cnc3c(N[C@@H](C4CCC4)C4CC4)nc(I)nc31)[C@H](O)[C@@H]2O
elimination rate constant (Wistar rats male, plasma; oral, 3.0 mg/kg): 4.47e-05 s⁻¹

CNC(=O)c1ccc(-c2cnc3ncc(Cc4ccc5ncccc5c4)n3n2)cc1F
Chills dose reduction/interruption (Japanese patients; oral, 400 mg, any grade): 1%

CC[C@@](N)(c1cnc(C(F)(F)F)c(Cl)c1)c1c2ccn(C3CC3)c(=O)c2nn1C
CLint,u (rat Sprague-Dawley male, blood; intravenous, 1 mg/kg): 8.19 mL/min/kg

CNC(=O)c1cc(Oc2ccc(NC(=O)Nc3cc(C(C)(C)C)nn3-c3ccc4ncccc4c3)c(F)c2)ccn1
patients with any AE of special interest (measured: worst grade 1; human; oral, dose not given, cycles 1 and 2, High Cmax subgroup): 33%

CNC(=O)c1ccc(-c2cnc3ncc(Cc4ccc5ncccc5c4)n3n2)cc1F
patients with adverse event (measured: Dizziness, all grades; cancer patients; oral, 600 mg twice daily, expansion cohort, any causality): 8%

CCn1cc(C(=O)N2CCOCC2)c(=O)c2cc(NC3Cc4ccccc4C3)cnc21
half-life (human overall, fed, plasma; oral, 900 mg twice daily, day 7, tablet, arithmetic mean): 5.6 h

N[C@H]1C(O)O[C@H](CO)[C@@H](O)[C@@H]1O (some centres unmarked)
osmolality (aqueous solution; 2 mM, added: glucose): 0 mOsmol/kg

CN1C(=O)[C@@H](NC(=O)c2nnc(Cc3ccccc3)[nH]2)COc2cccnc21
participants with any TEAE (phase I single ascending dose; human, male and female; oral, 30 mg, fasted): 66.7%

A few entries again:
COc1ccc2c(c1)CN(C(=O)CCN1CCC(Cc3ccccc3)CC1)CC[S@@+]2[O-]
heart rate (telemetry; conscious dog; intravenous, 4 mg/kg, 1 h): 89 ± 21 beats/min

CCc1c(-c2ccccc2)c(-c2ccccc2)nn1-c1ccccc1-c1cccc(OCC(=O)O)c1
concentration (Sprague-Dawley rat, fat homogenate; oral, 10 mg/kg, 4 h): 255 ng/mL and 169 ng/mL
